Measured values of several laboratories.
A part holds a random share of what one study measured.

Set 1
Target: Sal-like protein 4, full length isoform B (SALL4, Homo sapiens, UniProt Q9UJQ4-2, residues 1-616)
Method: universal PBM
Molecule type: double-stranded DNA, one strand shown
Matrix: in vitro
Concentration: not given
Notes: 8-mer, flanks averaged, mean of replicates
Reading: higher = stronger binding
Measurement: E-score
Target sequence (chain): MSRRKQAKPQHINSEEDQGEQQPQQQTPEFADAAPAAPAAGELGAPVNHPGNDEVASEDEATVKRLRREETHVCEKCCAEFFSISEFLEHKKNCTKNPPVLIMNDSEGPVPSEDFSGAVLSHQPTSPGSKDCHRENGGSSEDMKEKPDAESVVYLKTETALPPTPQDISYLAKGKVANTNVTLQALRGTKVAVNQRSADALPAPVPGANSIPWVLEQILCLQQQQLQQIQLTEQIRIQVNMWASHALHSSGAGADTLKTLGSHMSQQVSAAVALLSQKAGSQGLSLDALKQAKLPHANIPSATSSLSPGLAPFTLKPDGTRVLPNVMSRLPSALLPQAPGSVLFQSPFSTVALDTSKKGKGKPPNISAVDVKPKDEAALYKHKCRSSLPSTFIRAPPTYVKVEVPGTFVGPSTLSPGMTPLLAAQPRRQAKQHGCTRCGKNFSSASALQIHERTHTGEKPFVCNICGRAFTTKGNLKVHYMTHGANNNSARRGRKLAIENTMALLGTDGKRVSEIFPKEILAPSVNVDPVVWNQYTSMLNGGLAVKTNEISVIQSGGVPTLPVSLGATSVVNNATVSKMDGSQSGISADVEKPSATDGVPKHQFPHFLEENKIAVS
AGATACGG: -0.0284
ACGGCCCT: -0.276
ACGATTAC: 0.139
GGATCTAA: -0.00462
CTCCGCAG: -0.169
CGCGCTAG: -0.159
GCGTAGCA: -0.0856
ATCAACAC: 0.105
ATCATGTG: 0.155
CCTGTGCA: -0.089
ACAAGATG: 0.164
AGCTGAAT: -0.0303
GTGGGACA: -0.175
CAAAAGAA: 0.21
AATGAAGG: 0.0911
AGTTTGAG: -0.046
GAGGAACA: 0.029
GTCACGAA: 1e-05
AGATAGGA: 0.0135
CGCTAACA: -0.064
TGCTGCAA: 0.103
GCAGATAC: 0.0205
AAAATTTC: 0.18
AAATCTGT: 0.215
ACGGGAAG: -0.026

Set 2
Target: RING finger protein unkempt homolog, zinc fingers 1-6, GST-SBP tag (UNK, Homo sapiens, UniProt Q9C0B0, residues 30-357)
Method: RNA Bind-n-Seq
Molecule type: RNA
Matrix: in vitro
Concentration: not given
Notes: RNA with constant flanks, human and mouse sites, ends assumed
Baseline: input RNA pool
Reading: higher = stronger binding
Measurement: bound/input enrichment
Construct (chain): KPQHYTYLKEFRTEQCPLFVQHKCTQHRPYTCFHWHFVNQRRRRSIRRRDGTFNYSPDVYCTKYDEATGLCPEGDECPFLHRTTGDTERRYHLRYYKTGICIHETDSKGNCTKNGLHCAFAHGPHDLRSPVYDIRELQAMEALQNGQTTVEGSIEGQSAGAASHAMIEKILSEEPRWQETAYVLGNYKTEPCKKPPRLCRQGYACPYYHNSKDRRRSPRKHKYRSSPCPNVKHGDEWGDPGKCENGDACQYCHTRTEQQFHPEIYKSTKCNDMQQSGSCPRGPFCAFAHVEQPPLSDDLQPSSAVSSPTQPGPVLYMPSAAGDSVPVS
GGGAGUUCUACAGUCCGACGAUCCUUCAUUUUACACUAAAGCUUAAUGUCACUAAGUUUCAUGUCUGUACAGAUUAUUUAAAUCAUGGAAAUGAAAAAAAUGUUCUCUGCUUGCUACCAAAGGACAAACUCUUGGAAAUGAACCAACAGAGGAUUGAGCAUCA: 0.143 ratio
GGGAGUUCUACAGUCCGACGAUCCCAGAAGCCAUAAGGCAAGAUCCUACCCGGAAAGGCUCAGUGGUCAAUGUGAAUCCUACCAACACUAGGCCACAGAGUGACACCCCGGAGAUUCGUAAAUACAAGAAGAGGUUUAACUCUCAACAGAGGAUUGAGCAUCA: 0.121 ratio
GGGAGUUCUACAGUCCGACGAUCUCGGAUGCAGCAAUUGAAGCCAUGAAUGGGCAGUACCUCUGUAACCGUCCUAUCACCGUAUCUUAUGCCUUCAAGAAGGACUCCAAGGGUGAGCGCCAUGGCUCAGCAGCCGAACGACUUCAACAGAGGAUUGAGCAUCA: 0.113 ratio
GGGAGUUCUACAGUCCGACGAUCGCUUUACUUUCAGAAAAUGUUUUAGGGUAACUGCAUAAGACUAUGCAAUAAUUUUUAAUCAUUAGUAUUGAUGGUGUAUUAAAAGUUGUUGUACUUUGUCUGUGACCUUAAUUUUCUGCACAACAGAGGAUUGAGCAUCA: 0.146 ratio
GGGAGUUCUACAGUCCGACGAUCAACUGUGCGAUCAGCAGUUCUGAUGACCGUAGUCUGUUUCGACGGCUGAAACUUAAUUACGCAAUUUUUGAUGAGGGCCAUAUGCUGAAGAAUAUGGGCUCCAUUCGCUACCAGCACCUUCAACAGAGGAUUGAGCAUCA: 0.116 ratio
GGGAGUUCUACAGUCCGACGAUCACACACACACACACUCUCUGAGCACAUUAUCUGUGAUUCUUUCAUCCUCCCAGAAAGGAUCAGUGUUAGAAUGGGAAAUAGAGUGUGCCAUCUUGCUCUUUUGUUGGCAGAUGUCCCCGCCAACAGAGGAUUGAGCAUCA: 0.759 ratio
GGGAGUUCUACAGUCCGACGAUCAGACCUUUGGGGACAACUAAAGCUGCGGGAUACAAAGUCAGCCCAGGCAGACCUCCAGGUAGCAUUAAAGCUCUAUCCCGUCUUGCCGAUCUUGGUUAUGGCUGUGGCACUGCUGCUUUUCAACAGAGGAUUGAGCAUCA: 0.0954 ratio
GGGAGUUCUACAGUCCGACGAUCCGGAAUCUGCUGGCCCUUCGUCAGAUUGCCCAGAGGACCAUCAGCACCACUUCACGAAGGCAUUUUGAAAACAAGGUUCCAGAGAAACAAAAGCUGUUUCAGGAGGAUAAUGGGAUGCCACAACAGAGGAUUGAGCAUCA: 0.221 ratio

Set 3
Target: RNA binding protein fox-1 homolog 2, RRM domain, GST-SBP tag (RBFOX2, Homo sapiens, UniProt O43251-10, residues 100-194)
Method: RNA Bind-n-Seq
Molecule type: RNA
Matrix: in vitro
Concentration: 365 nM
Notes: natural RNA segment, single round, ends assumed
Baseline: no-protein control
Reading: higher = stronger binding
Measurement: RBNS enrichment (R)
Residues (chain): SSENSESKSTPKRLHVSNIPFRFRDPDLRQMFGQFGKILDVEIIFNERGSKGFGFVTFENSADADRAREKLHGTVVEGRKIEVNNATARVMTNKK
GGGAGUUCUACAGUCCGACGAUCUAGACCCCUGGAUGUGACUCUUCUUUUUAAAAGGAAACUAUGUGGAGGACGAUGCAAAAACAUAUUUAUCUUAGUUUGCUCUGCUGUAGUUCUGUUAUUUAUACUUGGUGUGGAAUUCUCGGGUGCCAA: 0.722
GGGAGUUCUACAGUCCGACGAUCAGGGCUGAGGACCCCUCCAGGCCCCUCUCUCCUGGAAGUGCUGCAUAUGCCCCUGUGCCCAGUGGUUGAUGAUACCACCACCACCUGCCUACCCAUGGGCCCAAGUUUCUUGGAAUUCUCGGGUGCCAA: 0.637
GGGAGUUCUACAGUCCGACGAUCGGCGGGGGCGCCCCGGUGAGCGCGGGGACGAUUUUCUAACCCCAGGGAGAACUCGCCAGAGACUGAGAGCAGAGACCACUUAUCCUCAUUGCUUACCCCGAGCCGGGGUUUGGAAUUCUCGGGUGCCAA: 0.387
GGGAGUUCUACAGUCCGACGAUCGUUUGAGUUUUUUGUGUGCUGUAUUUCUUUCUGUUUUUUAAUACCUGGUUUUGUACAUAUCUAACUCUGUUCUCUUUUGGUUGUUCAGAAACUGGAUUUUUUUUUUCUUAUGGAAUUCUCGGGUGCCAA: 1.08
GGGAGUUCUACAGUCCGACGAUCGCACCCAUUUUUGAGAAAGCUGGUUCUACAUGGGGGGAUAGCUGUGGAAUAGAUAAUUUGCUGCAUGUUAAUUCUCAAGAACUAAGCCUGUGCCAGUGCUUUCCUAAGCAUGGAAUUCUCGGGUGCCAA: 14.4
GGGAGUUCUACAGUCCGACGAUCCCACUGCACUCCAGCCUGGGGUGAUAGAACAAGACCCUGUCUCAAAAAAAAAAAAAACAACAAAAACUUAGAAUUGAGGAGUUGUACCUCCAUUGGCUUCCUCACUCCAAUGGAAUUCUCGGGUGCCAA: 0.812
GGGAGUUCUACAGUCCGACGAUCUGUGAUCAAUCCCUAGUAAAAGCCCUGGACACCUAGGCAUGGGUGAGCUACUCUGGUUGGUAAUACUCUGUGCACACAUCAUUGUAGCCACACAUCAUUGCUGGGAGAAUUGGAAUUCUCGGGUGCCAA: 0.252
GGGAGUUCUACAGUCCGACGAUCAGGAGGGAAACUGUUGGACCGACUCCUGCCCCCUGCUCAACACUGACCCCUCUGAGUGGUUGGAGGCAGUGCCCCAGUGCCCAGAAAUCCCACCAUUAGUGAUUGUUUUUUGGAAUUCUCGGGUGCCAA: 0.602

Set 4
Target: PABPC1L2, full length, GST fusion (mouse, UniProt A0ABA7IW68)
Method: RNAcompete
Molecule type: RNA
Matrix: in vitro
Concentration: 20 nM
Notes: 7-mer, probes averaged, single round
Baseline: mean of 7-mers
Reading: higher = stronger binding
Measurement: 7-mer Z-score
Construct (chain): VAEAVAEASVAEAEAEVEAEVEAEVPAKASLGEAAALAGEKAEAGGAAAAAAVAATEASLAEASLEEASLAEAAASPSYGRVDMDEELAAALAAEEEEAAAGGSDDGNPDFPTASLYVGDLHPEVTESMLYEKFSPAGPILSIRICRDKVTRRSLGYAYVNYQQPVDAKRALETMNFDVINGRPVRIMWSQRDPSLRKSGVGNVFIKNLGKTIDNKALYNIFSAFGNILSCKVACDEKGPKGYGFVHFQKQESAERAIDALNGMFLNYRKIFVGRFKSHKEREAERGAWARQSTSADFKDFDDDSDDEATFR
GACAAGU: 0.0913
CGAAUCU: -0.217
CAAAUGG: 0.196
UUUGCUA: -0.298
CAGAGGG: 0.256
UCAAGAC: -0.0047
CUAGUUA: -0.206
UAGCCUU: -0.425
UUACGGC: -0.0899
GAUAGUG: -0.0627
CGCGGGU: -0.0772
CAUAUGA: 0.0605
CGUUAGA: -0.171
UUGCAAC: -0.28
UACUCAA: -0.124
CCUUCCA: -0.374
UAUGGAU: -0.00108
CUAAACA: 1.72
ACGUUAA: -0.0826
GCCCUCC: -0.364
GACUCUA: -0.209
UGUCAGU: -0.273
UGCGACC: -0.155
GGUAGAC: 0.0569
AGCGAUU: -0.0953

Repeated from above (set 4):
UUUGCUA: -0.298
CAAAUGG: 0.196
UUGCAAC: -0.28
GCCCUCC: -0.364
CGUUAGA: -0.171
